Results from different studies.
Parts stem from different laboratories: compare values within a part only.

Sample 1 — method: protein binding microarray; molecule type: double-stranded DNA, one strand shown; matrix: in vitro; concentration: not given; baseline: not given; direction: higher = stronger binding
Target: Histone acetyltransferase KAT6A, winged helix 1, GST fusion (KAT6A, Homo sapiens, UniProt Q92794, residues 1-85)
Setting: 8-mer, flanks averaged, mean of 2 arrays, mostly near background
Construct (chain): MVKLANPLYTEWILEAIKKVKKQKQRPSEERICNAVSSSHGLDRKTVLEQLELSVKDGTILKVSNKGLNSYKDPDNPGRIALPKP
Strand | E-score
CCGTACTA | 0.303
AGCCAACT | -0.244
ATAAGATG | -0.101

Sample 2 — method: universal PBM; molecule type: double-stranded DNA, one strand shown; matrix: in vitro; concentration: not given; direction: higher = stronger binding
Target: Sal-like protein 4, full length isoform B (SALL4, Homo sapiens, UniProt Q9UJQ4-2, residues 1-616)
Setting: 8-mer, flanks averaged, mean of replicates
Strand | E-score
AGTACACT | 0.0503
AACTGCCC | -0.116
AAGCCGAG | -0.29

Sample 3 — method: competition protein-binding microarray; molecule type: double-stranded DNA, one strand shown; matrix: in vitro; concentration: 2 µM; with: Cbf1 competitor, 0.05 µM; direction: higher = stronger binding; all sequences stand within: … GTCTTGATTCGCTTGACGCTGCTG
Target: Phosphate system positive regulatory protein PHO4, full length, GST-tagged (PHO4, Saccharomyces cerevisiae, UniProt P07270, residues 1-312)
Setting: whole 60-bp probe, lowest competitor level
Residues (chain): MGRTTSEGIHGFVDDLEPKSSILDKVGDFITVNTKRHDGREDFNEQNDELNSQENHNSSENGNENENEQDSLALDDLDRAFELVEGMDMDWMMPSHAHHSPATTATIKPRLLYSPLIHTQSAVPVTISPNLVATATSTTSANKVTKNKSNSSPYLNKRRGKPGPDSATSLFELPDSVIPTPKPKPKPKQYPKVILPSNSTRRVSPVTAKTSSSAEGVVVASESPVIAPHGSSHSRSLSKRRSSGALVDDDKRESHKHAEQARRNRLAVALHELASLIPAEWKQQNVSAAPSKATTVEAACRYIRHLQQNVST
Strand | fluorescence intensity [a.u.]
TTTTTCCCTAGAAAAATCGTGCTAACAGGTATATCA | 6430
AAACAATTGGACGGCCACGTGGCCGCTCATGTAAGG | 18500
ATGCTTTAGTCTGGACTCGTGATGGTTCAACGATTT | 6990
CATACCCAACCTTGTATCGTGGGTGAAGATATTTGT | 8790
AATAAGTTCATCGACCACGCACACTTCACCAAGTTA | 8250

Other studies, line by line
Molecule | target | test | system | setting | scale | endpoint | result
PhoQ, residues 284 288 289 292 302 303 SVTLVV | PhoP, residues 12 14 15 18 19 NIMAP (Escherichia coli, UniProt P23836) | Sort-seq, measured: YFP reporter | E. coli | PhoQ-PhoP variant library, with: 10 µM Mg2+ | baseline: high Mg2+ state, higher = stronger signaling | fold induction | 0.545
